Measured values gathered from unrelated publications.
Protocols differ between the studies behind these lines. Values joined by “and” are separate records of one study, mostly repeats; a detail may differ. ± marks the error that the study gave.

For `COc1ccc(NC(=O)[C@H](CCCCN)NC(=O)c2cc(NC(=O)[C@H](CCCCN)NC(=O)c3cc(NC(=O)[C@H](CCCCN)NC(=O)c4cc(NC(C)=O)ccc4OC)ccc3OC)ccc2OC)cc1C(N)=O`, “association midpoint concentration” read 0.07 mM (UV-vis λmax shift; TBS; pH 7.4, monomer-hexamer fit, added: NaCl 0.15 M).
With `Cc1ccc2oc(-c3c4c(N)n[nH]c(=O)c4nn3-c3ccc(NC(=O)/C=C/CN(C)C)cc3)c(C)c2c1` the AUC(0-inf) was 321 ng·h/mL (mouse, plasma; intravenous, 1 mg/kg).
`N=C(N)NCCC[C@@H]1NC(=O)[C@H](Cc2c[nH]c3ccccc23)NC(=O)[C@@H](CC2CCCCC2)NC(=O)[C@@H]2CCCN2C(=O)[C@@H](NC(=O)CCc2ccccc2)CCCNC1=O`: “apparent distributional clearance” < 0.001 ng/(min·ng/g) (C57BL/6J mice, brain; oral, 1 mg/kg, two-compartment model).
Under “storage stability time”, `COC(=O)C(c1ccccc1Cl)N1CCC(SCC(=O)c2cccc(OC)c2)C(=CC(=O)O)C1` (mixture of isomers) is recorded as 1 weeks (feline plasma; room temperature).
For `NC(=O)[C@H](Cc1ccccc1)N[11C](=O)OCc1ccccc1`, the intact tracer was 97% and 97.3% (male Wistar rats, brain supernatant; intravenous, 15 min).
`CC[C@@H](C)[C@@H](NC(=O)[C@@H](C)NC(=O)[C@@H](CCCCN)NC(=O)[C@@H](CC(C)C)NC(=O)[C@@H](CC(C)C)NC(=O)[C@H](NC(=O)[C@@H](CCCCN)NC(=O)[C@@H](CC(C)C)NC(=O)[C@@H](CCCCN)NC(=O)[C@@H](CCCCN)NC(=O)[C@@H](CCCCN)NC(=O)[C@@H](CCCCN)NC(=O)[C@@H](C)NC(=O)[C@@H](CCCCN)NC(=O)[C@@H](CO)NC(=O)[C@@H](Cc1ccccc1)NC(=O)[C@H](NC(=O)[C@@H](CCCCN)NC(=O)[C@@H](CC(C)C)NC(=O)[C@@H](Cc1ccccc1)NC(=O)[C@@H](CO)NC(=O)[C@@H](CCCCN)NC(=O)[C@@H](Cc1c[nH]c2ccccc12)NC(=O)[C@@H](CCCCN)NC(C)=O)[C@H](C)O)[C@H](C)O)C(=O)N[C@H](CO)C(=O)N[C@H](CCCCN)C(N)=O` gave a helical content of 5% (circular dichroism; aqueous buffer; pH 7.0, 5 °C; baseline: reference peptide in TFE).
`COCC1CN(C2CCN(c3cc(OC)c(Nc4ncc(Br)c(Nc5ccc6c(c5P(C)(C)=O)OCCO6)n4)cc3C)CC2)C1` — result for “treatment-related Hypokalemia, all grades”: 11.1% (human patients; oral, 10 to 240 mg once daily).
The depolymerization half-life of `C[C@H](NC(=O)COC(=O)[C@H](C)NC(=O)CO)C(=O)O` is reported as 80.4 min (water; pH 6, 37 °C).
`C[C@H](Oc1cc(-c2cnn(C3CCN(CC[18F])CC3)c2)cnc1N)c1c(Cl)ccc(F)c1Cl` has a tracer uptake of 1.9 ± 0.6 %ID/cc (PET imaging; nude mouse, heart; iv, 30 min post injection).
`CC(C)c1cnc(-c2cc(Cl)ccc2F)cc1Nc1ccncc1C(=O)NC(CO)CO`: “patients with treatment-related adverse event” 4.8% (monotherapy, item: myalgia; human patients; oral, dose not given, grade 1, phase I A).
`COc1cc(C(=O)COC(=O)CCCN)ccc1O`: “photolysis quantum yield” 0.042 (LC-MS/MS; 1-pentanol; concentration not given).
`O=C(CCc1ccc(CNC(C(=O)OC2CCCC2)C2CCCCC2)cn1)NO` (centres unmarked) has a Tmax of 30 min (human, plasma; oral, 20 mg, single dose, median).
`CCCC[C@H](NC(=O)CNC(=O)CNC(=O)CN1CCN(CC(=O)O)CCN(CC(=O)O)CCN(CC(=O)O)CC1)C(=O)N[C@H]1CC(=O)NCCCC[C@@H](C(N)=O)NC(=O)[C@H](Cc2c[nH]c3ccccc23)NC(=O)[C@H](CCCNC(=N)N)NC(=O)[C@@H](Cc2ccccc2)NC(=O)[C@H](Cc2c[nH]cn2)NC1=O` [copper-64 labelled]: serum stability “stable” (RP-HPLC; mouse serum; 2 h, 37 °C).
`CC12CC(c3ccc(S(C)(=O)=O)cc3)C3C4=C(CCC3C1CCC2(O)C(F)(F)C(F)(F)F)C(=O)C(O)CC4` (centres unmarked): “excreted amount in feces” 0.6 to 7% (human; oral, 5 mg, mean of six subjects; baseline: dose).
Under “tissue uptake ratio”, `COc1cc([O-])c(C=NCCCN(C)CCN(C)CCCN=Cc2c([O-])cc(OC)cc2OC)c(OC)c1.[67Ga+3]` is recorded as 0.58 ± 0.04 (rat; intravenous, 1 min; baseline: heart over lung).
For `COc1cc(N(C)CCN(C)C)c(NC(=O)CCSCC(N)C(=O)O)cc1Nc1nccc(-c2cn(C3CC3)c3ccccc23)n1` (centres unmarked), the excreted amount was 0.39% (radio-HPLC; human, feces; 48 to 96 h, sample holds 20.06% dose; baseline: dose).
`COc1ccc(-c2csc(N/N=C(\C)c3cc(O)cc(O)c3)n2)cc1` — result for “concentration after storage”: 3.53 ng/mL (LC-MS/MS; rat plasma; 3.75 ng/mL, 45 days, long-term storage at -70 °C).
`Cc1cc(O)cc(O)c1C(=O)c1c2c3c(c(O)cc(C)c3oc1=O)C(=O)c1c(O)cc(O)cc1-2` gave a Papp A→B of 2.13 ×10⁻⁶ cm/s (Caco-2; 100 µM, 3 h, pH 7.4).
`Cc1ccc(C(=O)OCc2ccc([C@@H](CN)C(=O)Nc3ccc4cnccc4c3)cc2)c(C)c1` has a content remaining of < 50% (aqueous solution; 7 d, pH 4.8, 5 °C, added: timolol maleate).
`CCCCCCCCCCC(=O)C(F)F` has a hydrate fraction of 0% (19F NMR; chloroform).
The tracer uptake of `[11CH3]c1ccc2nc(C3CCC3)n(-c3ccc4[nH]ncc4c3)c2n1` is reported as ≥ 5 %ID/g (mouse, heart; 1 min).
With `CN(O)C(=O)CCC(=O)NCCCN(CCCCN(CCCNC(=O)CCC(=O)N(C)O)C(=O)CCC(=O)N(C)O)C(=O)CCC(=O)N(C)O.[89Zr]` the tracer uptake was 0.05 %ID/g (mouse, lung; 4 h).
Under “tumour to tissue ratio”, `CC(C)[C@H](NC(=O)[C@@H]1CCCN1C(=O)[C@H](CCCNC(=N)N)NC(=O)[C@H](CS)NC(=O)[C@H](Cc1c[nH]c2ccccc12)NC(=O)[C@H](CCCNC(=N)N)NC(=O)[C@@H](Cc1ccccc1)NC(=O)[C@H](Cc1c[nH]cn1)NC(=O)[C@H](CCC(=O)O)NC(=O)[C@H](CS)NC(=O)[C@H](CS)NC(=O)CNC(=O)[C@@H]1CC(=O)N[C@@H](CCCNC(=N)N)C(=O)NCC(=O)N[C@@H](CC(=O)O)C(=O)N[C@H](Cc2ccc(O)cc2)C(=O)N1)C(N)=O` [technetium-99m labelled] is recorded as 2.74 (C57 mouse, female, B16/F1 melanoma; intravenous, 0.037 MBq, 0.5 h; baseline: tumour over liver).
`Cn1c(=O)oc2ccc(-c3ccc(CC(C#N)NC(=O)C4CNCCCO4)c(F)c3)cc21` (centres unmarked): “subjects with adverse event” 25% (item: blood triglycerides increased; human; 40 mg, treatment-related, single dose, fasted).
`C=CC(=O)Nc1cc(Nc2nccc(-c3cn(C4CC4)c4ccccc34)n2)c(OC)cc1N(C)CCNC` gave an excreted amount of 12.3% (radio-HPLC, co-eluting peaks pooled; human male, feces; oral, 110 mg, 0 to 240 h, sample holds 81.99% dose; baseline: dose).
For `Cc1ccc(OCC(=O)N(Cc2cccs2)c2ccn[nH]2)cc1`, the half-life was 53.4 min (male Sprague-Dawley rat, plasma; oral, 30 mg/kg, single dose).
`CONC(=O)/C=C/c1cccc(S(=O)(=O)Nc2ccccc2)c1`: “AUC(0-inf) metabolic ratio” 0.892 (human, moderate liver dysfunction, plasma; intravenous, 400 mg/m^2 belinostat, cycle 1 day -7, geometric mean; baseline: metabolite over belinostat).
`CCN(CC)c1ccc2c(-c3ccccc3C(=O)OCCOCCOCC[18F])c3ccc(=[N+](CC)CC)cc-3oc2c1` has a tissue uptake of 0.32 ± 0.05 %ID/g (rat, muscle; 60 min).
With `NCC(=O)N1CCC[C@H]1C(=O)N1C[C@H](O)C[C@H]1C(=O)O` the log beta was 17 (potentiometric titration; 37 °C, MA complex, added: Fe(III)).

A few entries again:
For `COc1cc(N(C)CCN(C)C)c(NC(=O)CCSCC(N)C(=O)O)cc1Nc1nccc(-c2cn(C3CC3)c3ccccc23)n1` (centres unmarked), the excreted amount was 0.39% (radio-HPLC; human, feces; 48 to 96 h, sample holds 20.06% dose; baseline: dose).
`N=C(N)NCCC[C@@H]1NC(=O)[C@H](Cc2c[nH]c3ccccc23)NC(=O)[C@@H](CC2CCCCC2)NC(=O)[C@@H]2CCCN2C(=O)[C@@H](NC(=O)CCc2ccccc2)CCCNC1=O`: “apparent distributional clearance” < 0.001 ng/(min·ng/g) (C57BL/6J mice, brain; oral, 1 mg/kg, two-compartment model).
`C=CC(=O)Nc1cc(Nc2nccc(-c3cn(C4CC4)c4ccccc34)n2)c(OC)cc1N(C)CCNC` gave an excreted amount of 12.3% (radio-HPLC, co-eluting peaks pooled; human male, feces; oral, 110 mg, 0 to 240 h, sample holds 81.99% dose; baseline: dose).
`CCCC[C@H](NC(=O)CNC(=O)CNC(=O)CN1CCN(CC(=O)O)CCN(CC(=O)O)CCN(CC(=O)O)CC1)C(=O)N[C@H]1CC(=O)NCCCC[C@@H](C(N)=O)NC(=O)[C@H](Cc2c[nH]c3ccccc23)NC(=O)[C@H](CCCNC(=N)N)NC(=O)[C@@H](Cc2ccccc2)NC(=O)[C@H](Cc2c[nH]cn2)NC1=O` [copper-64 labelled]: serum stability “stable” (RP-HPLC; mouse serum; 2 h, 37 °C).
